{"data": "Results gathered from unrelated publications", "note": "A part holds a random share of what one study measured.", "UniProt Q00526, sequence (whole entry, looked up)": "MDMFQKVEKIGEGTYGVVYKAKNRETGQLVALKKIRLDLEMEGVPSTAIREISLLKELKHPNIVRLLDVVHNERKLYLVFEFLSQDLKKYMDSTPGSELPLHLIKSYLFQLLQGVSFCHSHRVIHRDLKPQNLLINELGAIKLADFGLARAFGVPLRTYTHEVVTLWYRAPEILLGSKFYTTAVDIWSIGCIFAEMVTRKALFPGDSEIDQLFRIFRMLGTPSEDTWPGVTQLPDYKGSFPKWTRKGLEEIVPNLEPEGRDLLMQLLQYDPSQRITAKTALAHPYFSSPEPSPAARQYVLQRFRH", "UniProt Q96J92, sequence (whole entry, looked up)": "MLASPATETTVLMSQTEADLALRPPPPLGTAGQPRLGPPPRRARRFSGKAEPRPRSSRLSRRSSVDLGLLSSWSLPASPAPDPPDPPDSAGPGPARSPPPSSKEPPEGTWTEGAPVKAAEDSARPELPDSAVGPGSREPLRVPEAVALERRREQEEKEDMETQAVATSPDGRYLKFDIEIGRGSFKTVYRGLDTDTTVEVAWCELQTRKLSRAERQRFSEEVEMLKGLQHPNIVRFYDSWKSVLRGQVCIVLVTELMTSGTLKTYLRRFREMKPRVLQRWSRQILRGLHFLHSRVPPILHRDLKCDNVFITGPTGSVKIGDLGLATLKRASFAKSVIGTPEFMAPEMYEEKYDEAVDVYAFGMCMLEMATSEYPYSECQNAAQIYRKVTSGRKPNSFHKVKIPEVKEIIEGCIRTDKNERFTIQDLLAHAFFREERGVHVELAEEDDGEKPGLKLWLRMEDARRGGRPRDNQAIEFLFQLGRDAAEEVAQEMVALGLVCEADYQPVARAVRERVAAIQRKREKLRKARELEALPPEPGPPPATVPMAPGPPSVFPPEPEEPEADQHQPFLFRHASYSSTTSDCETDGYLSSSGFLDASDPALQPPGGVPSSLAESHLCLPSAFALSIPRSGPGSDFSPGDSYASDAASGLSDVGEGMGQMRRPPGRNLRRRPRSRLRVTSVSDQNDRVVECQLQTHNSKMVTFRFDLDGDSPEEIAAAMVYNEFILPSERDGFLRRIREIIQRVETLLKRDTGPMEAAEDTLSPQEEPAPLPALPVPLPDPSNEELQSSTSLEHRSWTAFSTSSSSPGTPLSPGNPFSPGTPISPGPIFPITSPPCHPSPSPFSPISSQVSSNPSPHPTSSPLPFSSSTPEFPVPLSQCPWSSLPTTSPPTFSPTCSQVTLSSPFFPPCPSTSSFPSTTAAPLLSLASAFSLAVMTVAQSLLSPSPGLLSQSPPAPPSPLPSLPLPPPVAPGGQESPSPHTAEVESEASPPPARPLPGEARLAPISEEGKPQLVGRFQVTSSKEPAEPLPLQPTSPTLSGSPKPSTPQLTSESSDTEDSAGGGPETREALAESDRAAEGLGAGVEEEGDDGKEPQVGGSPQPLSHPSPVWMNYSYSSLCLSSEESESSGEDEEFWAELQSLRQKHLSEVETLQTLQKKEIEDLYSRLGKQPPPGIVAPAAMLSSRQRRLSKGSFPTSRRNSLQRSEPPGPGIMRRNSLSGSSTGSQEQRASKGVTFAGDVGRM", "UniProt Q15349, sequence (whole entry, looked up)": "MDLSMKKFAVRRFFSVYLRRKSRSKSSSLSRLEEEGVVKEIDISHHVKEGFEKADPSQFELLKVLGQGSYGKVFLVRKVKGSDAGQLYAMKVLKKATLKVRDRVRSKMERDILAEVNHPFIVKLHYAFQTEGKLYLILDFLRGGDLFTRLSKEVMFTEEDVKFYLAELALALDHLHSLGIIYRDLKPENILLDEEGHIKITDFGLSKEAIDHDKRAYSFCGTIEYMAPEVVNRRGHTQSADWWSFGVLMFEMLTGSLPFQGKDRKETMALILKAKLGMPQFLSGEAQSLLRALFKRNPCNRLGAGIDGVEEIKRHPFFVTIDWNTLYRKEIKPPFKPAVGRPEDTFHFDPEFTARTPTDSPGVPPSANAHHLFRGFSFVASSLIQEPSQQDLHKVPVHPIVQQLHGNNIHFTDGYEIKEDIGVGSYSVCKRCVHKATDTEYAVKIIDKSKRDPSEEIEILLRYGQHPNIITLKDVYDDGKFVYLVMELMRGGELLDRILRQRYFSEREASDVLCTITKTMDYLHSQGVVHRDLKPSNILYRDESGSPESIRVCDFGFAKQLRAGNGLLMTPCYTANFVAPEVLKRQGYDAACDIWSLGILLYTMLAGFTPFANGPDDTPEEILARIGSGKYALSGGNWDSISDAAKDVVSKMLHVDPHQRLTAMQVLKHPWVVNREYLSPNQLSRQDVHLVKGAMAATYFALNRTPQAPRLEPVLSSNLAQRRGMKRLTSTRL", "UniProt P42680, sequence (whole entry, looked up)": "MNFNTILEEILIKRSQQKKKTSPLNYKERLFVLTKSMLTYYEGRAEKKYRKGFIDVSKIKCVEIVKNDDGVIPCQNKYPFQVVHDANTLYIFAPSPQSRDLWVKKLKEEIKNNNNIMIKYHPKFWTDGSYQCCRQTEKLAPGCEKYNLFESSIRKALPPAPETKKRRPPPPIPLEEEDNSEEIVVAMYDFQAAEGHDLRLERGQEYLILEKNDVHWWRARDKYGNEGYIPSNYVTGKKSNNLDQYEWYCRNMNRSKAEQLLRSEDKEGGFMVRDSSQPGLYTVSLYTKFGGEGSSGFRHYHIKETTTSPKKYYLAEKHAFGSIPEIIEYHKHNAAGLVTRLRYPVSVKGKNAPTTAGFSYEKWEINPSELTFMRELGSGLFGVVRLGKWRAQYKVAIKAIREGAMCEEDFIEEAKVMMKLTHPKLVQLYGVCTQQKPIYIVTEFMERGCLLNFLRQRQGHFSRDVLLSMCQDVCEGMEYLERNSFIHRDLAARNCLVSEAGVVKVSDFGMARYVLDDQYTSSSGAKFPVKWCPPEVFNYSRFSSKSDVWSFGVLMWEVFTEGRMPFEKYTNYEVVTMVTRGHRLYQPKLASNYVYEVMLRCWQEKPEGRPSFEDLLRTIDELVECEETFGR", "UniProt Q9UHD2, sequence (whole entry, looked up)": "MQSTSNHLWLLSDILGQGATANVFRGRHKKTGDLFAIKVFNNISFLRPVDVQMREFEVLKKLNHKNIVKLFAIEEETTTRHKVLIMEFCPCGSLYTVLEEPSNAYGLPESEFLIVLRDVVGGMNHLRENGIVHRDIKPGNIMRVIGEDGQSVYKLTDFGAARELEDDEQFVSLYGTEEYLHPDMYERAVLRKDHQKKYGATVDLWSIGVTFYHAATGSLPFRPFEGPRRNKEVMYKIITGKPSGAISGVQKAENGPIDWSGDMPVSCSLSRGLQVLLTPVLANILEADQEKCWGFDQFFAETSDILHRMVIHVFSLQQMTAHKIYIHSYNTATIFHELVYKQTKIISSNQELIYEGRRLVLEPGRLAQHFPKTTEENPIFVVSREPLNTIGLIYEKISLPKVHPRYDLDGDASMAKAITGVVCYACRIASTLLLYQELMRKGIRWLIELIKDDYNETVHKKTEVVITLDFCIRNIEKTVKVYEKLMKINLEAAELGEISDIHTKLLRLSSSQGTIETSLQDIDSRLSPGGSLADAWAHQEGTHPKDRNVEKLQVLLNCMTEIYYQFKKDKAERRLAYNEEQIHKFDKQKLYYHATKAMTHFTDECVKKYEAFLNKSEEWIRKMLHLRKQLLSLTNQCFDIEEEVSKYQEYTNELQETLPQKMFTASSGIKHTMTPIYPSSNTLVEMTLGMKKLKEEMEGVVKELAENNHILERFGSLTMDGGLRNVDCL", "UniProt P49674, sequence (whole entry, looked up)": "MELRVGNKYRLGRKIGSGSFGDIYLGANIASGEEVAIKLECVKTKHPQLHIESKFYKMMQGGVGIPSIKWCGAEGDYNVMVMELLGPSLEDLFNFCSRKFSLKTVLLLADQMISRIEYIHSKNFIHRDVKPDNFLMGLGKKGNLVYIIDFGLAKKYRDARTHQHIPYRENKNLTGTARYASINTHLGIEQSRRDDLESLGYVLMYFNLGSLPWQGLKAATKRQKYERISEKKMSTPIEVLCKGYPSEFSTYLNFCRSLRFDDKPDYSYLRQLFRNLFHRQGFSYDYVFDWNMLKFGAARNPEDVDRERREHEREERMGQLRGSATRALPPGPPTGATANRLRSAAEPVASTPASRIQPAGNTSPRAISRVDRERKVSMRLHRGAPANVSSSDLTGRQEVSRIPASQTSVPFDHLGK"}
{"data": "Set 1", "host": "mouse", "sample": "microsomes or S9", "concentration": "2 µM", "time": "0.5 h"}
{"SMILES": "Nc1ncc(Br)cc1S(=O)(=O)NCCC(=O)NCc1ccco1", "remaining compound": "1.31%"}
{"SMILES": "Cc1ccc(S(=O)(=O)C(C#N)c2nc3ccccc3nc2N2CC(C)OC(C)C2)cc1C (stereo not shown)", "remaining compound": "2.93%"}
{"SMILES": "COc1nc(NCCc2c[nH]c3ccccc23)nc(Nc2ccc3[nH]ncc3c2)n1", "remaining compound": "5.49%"}
{"SMILES": "CCCNS(=O)(=O)c1cc(N2CCCCS2(=O)=O)ccc1OC", "remaining compound": "49.4%"}
{"SMILES": "NS(=O)(=O)c1ccc(-c2nc3cscc3c(=O)[nH]2)cc1", "remaining compound": "70.5%"}
{"SMILES": "COCCNC(=O)C(c1ccc(Cl)cc1)N(CCOC)C(=O)CCC(=O)Nc1ccccn1 (stereo not shown)", "remaining compound": "21.4%"}
{"SMILES": "CN(C(=O)CN1N=C(c2ccccc2)Cn2c(cc3ccccc32)C1=O)C1CCCCC1", "remaining compound": "2.48%"}
{"SMILES": "COCC(C)(O)CNS(=O)(=O)c1ccc(N2CCCCS2(=O)=O)cc1 (stereo not shown)", "remaining compound": "92.8%"}
{"data": "Set 2", "SMILES": "CO[C@@H](C)c1c(Nc2ccc([C@H](N(C)C(=O)C3CCS(=O)(=O)CC3)C(F)(F)F)cc2)cnc2cc(Cl)nn12", "effect on": "cell-free assay", "method": "competition with immobilised ligand", "concentration": "1 µM"}
{"target": "CDK3 (Homo sapiens, UniProt Q00526)", "remaining binding [%]": 90}
{"target": "CDC42BPA (Homo sapiens, UniProt Q5VT25)", "remaining binding [%]": 86}
{"target": "GSK3A (Homo sapiens, UniProt P49840)", "remaining binding [%]": 86}
{"target": "TBK1 (Homo sapiens, UniProt Q9UHD2)", "remaining binding [%]": 59}
{"target": "TEC (Homo sapiens, UniProt P42680)", "remaining binding [%]": 84}
{"target": "FLT3 (Homo sapiens, UniProt P36888, ITD)", "remaining binding [%]": 71}
{"target": "WNK4 (Homo sapiens, UniProt Q96J92)", "remaining binding [%]": 99}
{"target": "STK36 (Homo sapiens, UniProt Q9NRP7)", "remaining binding [%]": 91}
{"target": "Tyrosine-protein kinase ABL1, phosphorylated (ABL1, Homo sapiens, UniProt P00519, Y253F)", "remaining binding [%]": 100}
{"target": "Ribosomal protein S6 kinase alpha-2, N-terminal kinase domain (RPS6KA2, Homo sapiens, UniProt Q15349)", "remaining binding [%]": 100}
{"target": "AKT2 (Homo sapiens, UniProt P31751)", "remaining binding [%]": 99}
{"target": "SIK2 (Homo sapiens, UniProt Q9H0K1)", "remaining binding [%]": 87}
{"target": "CSNK1E (Homo sapiens, UniProt P49674)", "remaining binding [%]": 66}
{"target": "NEK5 (Homo sapiens, UniProt Q6P3R8)", "remaining binding [%]": 84}
{"data": "Set 3", "target": "Cyclin-dependent kinase 3, with cyclin E (CDK3, Homo sapiens, UniProt Q00526)", "effect on": "enzyme activity", "mode": "inhibitor", "concentration": "0.5 µM", "relative to": "control"}
{"SMILES": "Cc1cncc2cccc(S(=O)(=O)N3CCCN(C(=O)CN)C[C@@H]3C)c12", "remaining activity [%]": 98}
{"SMILES": "CC(=O)c1ccc(N2CCOCC2)cc1O", "remaining activity [%]": 102}
{"SMILES": "Nc1nccc(-c2c(-c3ccc(F)cc3)ncn2C2CCNCC2)n1", "remaining activity [%]": 95.5}
{"SMILES": "O=C1NC(=O)C(c2c[nH]c3ccccc23)=C1c1c[nH]c2ccccc12", "remaining activity [%]": 91.5}
{"SMILES": "N#CC(=C(N)Sc1ccc(N)cc1)c1ccccc1C(F)(F)F", "remaining activity [%]": 105}
{"SMILES": "Nc1nc(Nc2ccc(S(N)(=O)=O)cc2)nn1C(=O)c1c(F)cccc1F", "remaining activity [%]": 32.4}
{"SMILES": "CC(C)(C)n1nc(Cc2cccc3ccccc23)c2c(N)ncnc21", "remaining activity [%]": 87.8}
{"SMILES": "O=S(=O)(NCCNC/C=C/c1ccc(Br)cc1)c1cccc2cnccc12", "remaining activity [%]": 77.3}
{"SMILES": "CSc1nc(-c2ccnc(N[C@@H](C)c3ccccc3)c2)c(-c2ccc(F)cc2)[nH]1 (racemic)", "remaining activity [%]": 85.3}
{"SMILES": "Cc1ccc(NC2=CC(=O)c3sc(C)nc3C2=O)cc1", "remaining activity [%]": 88.5}
{"SMILES": "Nc1ncnc2c1cnn2-c1ccccc1", "remaining activity [%]": 96.2}
{"data": "Set 4", "organism": "Sarcocystis neurona", "effect on": "parasite growth", "concentration": "10 µM", "time": "96 h", "setting": "first screen", "relative to": "untreated"}
{"Structure (SMILES)": "CN(C)CC/C=C1/c2ccccc2COc2ccc(CC(=O)O)cc21", "log2 fold change": -0.18}
{"Structure (SMILES)": "COc1c2occc2cc2ccc(=O)oc12", "log2 fold change": 0.09}
{"Structure (SMILES)": "Cn1c(=O)c2[nH]cnc2n(C)c1=O", "log2 fold change": 0.06}
{"Structure (SMILES)": "NS(=O)(=O)c1cc2c(cc1Cl)NCNS2(=O)=O", "log2 fold change": 0.26}
{"Structure (SMILES)": "O=c1c(O[C@@H]2O[C@H](CO)[C@H](O)[C@H](O)[C@H]2O)c(-c2ccc(O)c(O)c2)oc2cc(O)cc(O)c12", "log2 fold change": -0.0464}
{"Structure (SMILES)": "CC(C)NCC(O)COc1ccc(CC(N)=O)cc1 (stereo not shown)", "log2 fold change": -1.28}
{"Structure (SMILES)": "CC(C)n1c(/C=C/C(O)CC(O)CC(=O)O)c(-c2ccc(F)cc2)c2ccccc21 (stereo not shown)", "log2 fold change": 0.04}
{"note": "Repeated from above (set 4):"}
{"Structure (SMILES)": "Cn1c(=O)c2[nH]cnc2n(C)c1=O", "log2 fold change": 0.06}
{"Structure (SMILES)": "COc1c2occc2cc2ccc(=O)oc12", "log2 fold change": 0.09}
{"Structure (SMILES)": "CN(C)CC/C=C1/c2ccccc2COc2ccc(CC(=O)O)cc21", "log2 fold change": -0.18}
{"Structure (SMILES)": "CC(C)NCC(O)COc1ccc(CC(N)=O)cc1 (stereo not shown)", "log2 fold change": -1.28}
